{"data": "Results of several laboratories", "note": "Numbered parts are unrelated; each lists some results of a single study."}
{"data": "Series 1", "target": "RING finger protein unkempt homolog, zinc fingers 1-6, GST-SBP tag (UNK, Homo sapiens, UniProt Q9C0B0, residues 30-357)", "technique": "RNA Bind-n-Seq", "form": "RNA", "sample": "in vitro", "tested at": "not given", "setting": "RNA with constant flanks, human and mouse sites, ends assumed", "baseline": "input RNA pool", "reading": "higher = stronger binding", "shared flanks, not repeated": "GGGAGUUCUACAGUCCGACGAUC … CAACAGAGGAUUGAGCAUCA", "Construct (chain)": "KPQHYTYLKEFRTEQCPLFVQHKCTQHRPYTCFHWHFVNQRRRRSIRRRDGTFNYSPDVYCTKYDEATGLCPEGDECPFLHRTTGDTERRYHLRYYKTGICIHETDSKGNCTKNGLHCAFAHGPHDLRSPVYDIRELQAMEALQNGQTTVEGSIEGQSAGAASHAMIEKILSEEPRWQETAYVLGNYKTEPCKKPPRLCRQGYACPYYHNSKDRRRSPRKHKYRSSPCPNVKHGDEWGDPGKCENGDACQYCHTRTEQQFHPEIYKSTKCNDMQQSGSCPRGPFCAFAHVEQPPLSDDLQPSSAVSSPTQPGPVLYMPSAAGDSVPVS"}
{"Sequence": "UGUGAACUGUCUCUUGAGAUCUAAAAACAAGAUGACUUUUCCUGGCACAUAUUCCAAAGCAAAGACUUUGUUGCCUGCUGCUUAUUGUCUAAUUUACAGGGAUAUUUAAUUUUGUCAGGU", "bound/input enrichment": "0.116 ratio"}
{"Sequence": "CGCCUGAGUACAGACGUGACUUGUAGCUUGUUGCCUAACAGGCUUACUAACCCAAGACAGUUUAGAAAAUGUAUGUUAAAUCAAUCAUUCUCGAAGGAUUCAAGUCCUAUGCACAGAGGA", "bound/input enrichment": "1.21 ratio"}
{"Sequence": "CCAGUCAUGAAGAUGGAGCCCCUGAAUAACCUGCAGGUGGCUGUUAAAAACAAUAUUGAUGUCUUCUACUUCAGCUGCCUCAUCCCACUCAAUGUGCUUUUUGUAGAAGAUGGCAAAAUG", "bound/input enrichment": "0.143 ratio"}
{"Sequence": "CGGGGGAUGAGUGACAGAGAGCGUCCUAUGCCUUGGAGACUGUCAUGGCAUAAGCUGUGCUAGCACCUCCUCAGGAAAUGAGAUUGAUUUUUACAACAGCCAAUAACGUUUGCACUUUAU", "bound/input enrichment": "0.0979 ratio"}
{"Sequence": "ACAUCUGAGGUGUAUGAUGGUCCCAAAAAUGUAAGAUCUGAUAUUUCUGAUCAAGAGGAAGAUGAAGAAAGUGAAGGAUGUCCAGUGUCUAUUAAUUUGUCUAAAGCUGAAACUCAGGCU", "bound/input enrichment": "0.146 ratio"}
{"Sequence": "GAUAUUUGCAAUUAGUUGUCUUAACUAAUGGUUUUUUUCACUUGCAGGAUUAUUUCCUAUUUAGAGAUGGUGACAUUCUUGGAAAGUACGUAGACUGAAAUAAGUCACUAUUGAAAUGGC", "bound/input enrichment": "0.487 ratio"}
{"Sequence": "AACCAAGGAACAGUGAUCCACUUUAACAACCCUAAAGUUCAGGCAUCUCUGGCAGCGAACACUUUCACCAUUACAGGCCAUGCUGAGACAAAGCAGCUGACAGAAAUGCUACCCAGCAUC", "bound/input enrichment": "0.183 ratio"}
{"Sequence": "CUCAGGCCAAGACUUCCCAAGAUUAUCAGGCCUUAACAGUACAUGACAAUUUGGCUAUGAAAAUUUGCAAUGAGAUCUUAACAAGUCCGUGCUCGCCAGAAAUUCGAGUCUAUACAAAAG", "bound/input enrichment": "0.108 ratio"}
{"data": "Series 2", "target": "Histone acetyltransferase KAT6A, winged helix 2, GST fusion (KAT6A, Homo sapiens, UniProt Q92794, residues 85-181)", "technique": "protein binding microarray", "form": "double-stranded DNA, one strand shown", "sample": "in vitro", "tested at": "not given", "setting": "8-mer, flanks averaged, mean of 2 arrays, mostly near background", "baseline": "not given", "reading": "higher = stronger binding", "Target sequence (chain)": "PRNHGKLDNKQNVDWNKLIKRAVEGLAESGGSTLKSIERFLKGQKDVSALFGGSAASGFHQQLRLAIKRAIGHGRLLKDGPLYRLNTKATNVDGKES"}
{"Sequence": "ACATTGGC", "E-score": -0.142}
{"Sequence": "ACCACCTG", "E-score": 0.0193}
{"Sequence": "AGCGATTC", "E-score": 0.00864}
{"Sequence": "TACTAAGA", "E-score": 0.0994}
{"Sequence": "CGTCGAAA", "E-score": 0.0333}
{"Sequence": "CGGGTTTA", "E-score": 0.0571}
{"Sequence": "GTGTAAGA", "E-score": -0.0653}
{"Sequence": "AGTAAATG", "E-score": -0.0758}
{"Sequence": "ATTTAGGC", "E-score": 0.0272}
{"Sequence": "GATTAGGA", "E-score": -0.105}
{"Sequence": "GTCCCCCA", "E-score": -0.0792}
{"Sequence": "ATAAGAAG", "E-score": 0.106}
{"Sequence": "AAAACTCT", "E-score": 0.104}
{"Sequence": "GATGAAGA", "E-score": 0.0368}
{"Sequence": "AGAACGCT", "E-score": -0.0202}
{"Sequence": "AGTCTAAC", "E-score": -0.235}
{"Sequence": "AGGTACGA", "E-score": -0.212}
{"Sequence": "AATGTAGG", "E-score": -0.12}
{"Sequence": "GAGGTATA", "E-score": -0.135}
{"data": "Series 3", "target": "RNA binding protein fox-1 homolog 2, RRM domain, GST-SBP tag (RBFOX2, Homo sapiens, UniProt O43251-10, residues 100-194)", "technique": "RNA Bind-n-Seq", "form": "RNA", "sample": "in vitro", "tested at": "365 nM", "setting": "natural RNA segment, single round, ends assumed", "baseline": "no-protein control", "reading": "higher = stronger binding", "shared flanks, not repeated": "GGGAGUUCUACAGUCCGACGAUC … UGGAAUUCUCGGGUGCCAA", "Construct (chain)": "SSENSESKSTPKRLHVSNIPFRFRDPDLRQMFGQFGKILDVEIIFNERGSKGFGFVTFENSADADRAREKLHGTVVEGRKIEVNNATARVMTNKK"}
{"Sequence": "CAGCAAAGAAGAUAUAGGCAGUAAUAUCAACACUGCUAUAUCAUGUGUAGGACAUUUCUUAUCCAUUUUUUCUCUUUUACUUGCAUAGUUGCUAUGUGUUUCUCAUUGUA", "RBNS enrichment (R)": 0.912}
{"Sequence": "CUAGUCCUUGGAGCUAAACUGGGAGUGGGUGCCAGGUGGAGGGUAGCAGGUCUGACCAGCCCUACACCCUGCCACAGAUCACAGCUUGCCGGGCAAAUGACCCUGCGAAG", "RBNS enrichment (R)": 0.464}
{"Sequence": "AACGGUUUAACAGCAAGGGUACAAAGGCUGUAGUUUGAGGCCAGAGCAAUUAGCGCUUGUCAGCUUACCUUACAACACAGAGGGUCCAGCUGUUCACACAAGGGGGCAGG", "RBNS enrichment (R)": 0.316}
{"Sequence": "GUCUUCUUGUGUGACUGUUUCUGUAUGAAGUAUAAAAAUUUGUGUGCCUUGAGCAAGUCUCAUUUUCUUUGUAAGCUGCCUCUUCCGCCAUUUCAUCUGAGGUUGCUGUC", "RBNS enrichment (R)": 1.03}
{"Sequence": "AAGCUGCUUCCUCUUAUAAAAUAGCUUUUGCCGAAACAUAGUUUUUUUUUAGCAGAUCCCAAAAUAUAAUGAAGGGGAUGGUGGGAUAUUUGUGUCUGUGUUCUUAUAAU", "RBNS enrichment (R)": 0.381}
{"Sequence": "AGGGAAGAGGGUCGAGAGGGUUCCACUGUCUUGAGAGCUUCCUUUUGCUUUCUUCUCUUGCCUCUGAGAACAUCAGCCUGGAGGCCUGUCAGGCUACGGGCUGCCUGAGU", "RBNS enrichment (R)": 0.574}
{"Sequence": "CCUUUUUCACCUUUUAAUUUUAUAUUAUUUGUGUCAUACAUUUCCAGUAAUGGAAGUGUUAAUUUUACUGUACUUUUUGGUACCUUUUGGGAAUCUAAUGUAUUGUAAGG", "RBNS enrichment (R)": 1.87}
{"Sequence": "GCCUUCGACAAAAGUGUGUAUUUGUCCCGGGGAGGGUAGCAGUGGGCCAUGGGGCUUCUUGUGCCCUAAAGGGGACUGGCUGCUGUGAUCUUCUAAGGGGCCCAGGGCCA", "RBNS enrichment (R)": 0.443}
{"data": "Series 4", "target": "Sal-like protein 4, full length isoform B (SALL4, Homo sapiens, UniProt Q9UJQ4-2, residues 1-616)", "technique": "universal PBM", "form": "double-stranded DNA, one strand shown", "sample": "in vitro", "tested at": "not given", "setting": "8-mer, flanks averaged, mean of replicates", "reading": "higher = stronger binding"}
{"Sequence": "ACCCCCTG", "E-score": -0.16}
{"Sequence": "GAGTGGAC", "E-score": -0.161}
{"Sequence": "TAACGAGA", "E-score": 0.143}
{"Sequence": "TGCCGAAA", "E-score": -0.154}
{"Sequence": "GCGTGGCC", "E-score": -0.332}
{"Sequence": "ATTGGTGG", "E-score": 0.0747}
{"Sequence": "AAGCGTGA", "E-score": -0.0162}
{"Sequence": "CTGGAGGA", "E-score": -0.0578}
{"Sequence": "CGCTGCTC", "E-score": -0.234}
{"Sequence": "CCTTGCAA", "E-score": -0.11}
{"Sequence": "CGGAACAA", "E-score": 0.0311}
{"Sequence": "TAGTCCCA", "E-score": -0.0535}
{"Sequence": "TAATTCGA", "E-score": 0.228}
{"Sequence": "GGAAGGAC", "E-score": -0.0112}
{"Sequence": "AAAGATTT", "E-score": 0.274}
{"Sequence": "AGCACGCG", "E-score": -0.115}
{"Sequence": "GCACACTA", "E-score": -0.0587}
{"Sequence": "AGACAAAG", "E-score": 0.0496}
{"Sequence": "ACGTGCTA", "E-score": 0.169}
{"Sequence": "ATCCAAAG", "E-score": 0.0882}
{"Sequence": "AAGCTGTG", "E-score": -0.11}
{"Sequence": "ATTGGGCC", "E-score": -0.117}
{"Sequence": "AGCGGATA", "E-score": -0.156}
{"Sequence": "ACGATGAT", "E-score": 0.1}
{"Sequence": "ACTTGTCT", "E-score": 0.128}
{"data": "Series 5", "target": "TAR DNA-binding protein 43, full length, His tag (TARDBP, Homo sapiens, UniProt Q13148, residues 1-414)", "technique": "RNA Bind-n-Seq", "form": "RNA", "sample": "in vitro", "tested at": "20 nM", "setting": "6-mer, flanks averaged, single round", "added": "150 mM LiCl", "baseline": "input library", "reading": "higher = stronger binding"}
{"Sequence": "GCCCCU", "6-mer enrichment (R)": 1.22}
{"Sequence": "CGUGCG", "6-mer enrichment (R)": 1.08}
{"Sequence": "GAGAGA", "6-mer enrichment (R)": 1.09}
{"Sequence": "AGGAAC", "6-mer enrichment (R)": 0.863}
{"Sequence": "CGACUA", "6-mer enrichment (R)": 0.792}
{"Sequence": "CUGGAC", "6-mer enrichment (R)": 0.904}
{"Sequence": "ACUGUC", "6-mer enrichment (R)": 0.874}
{"Sequence": "CAGCGU", "6-mer enrichment (R)": 0.975}
{"Sequence": "CAGUGC", "6-mer enrichment (R)": 0.944}
{"Sequence": "GUCAGG", "6-mer enrichment (R)": 1.03}
{"Sequence": "UCCGGG", "6-mer enrichment (R)": 0.963}
{"Sequence": "GGAUGG", "6-mer enrichment (R)": 1.27}
{"Sequence": "AAGACC", "6-mer enrichment (R)": 0.807}
{"Sequence": "GCGCUG", "6-mer enrichment (R)": 1}
{"Sequence": "CCCCAC", "6-mer enrichment (R)": 1.18}
{"Sequence": "UGAAUU", "6-mer enrichment (R)": 0.957}
{"Sequence": "GUGGUG", "6-mer enrichment (R)": 1.78}
{"Sequence": "UCUAUA", "6-mer enrichment (R)": 0.901}
{"Sequence": "UUGGUG", "6-mer enrichment (R)": 1.41}
{"Sequence": "UCAGUU", "6-mer enrichment (R)": 0.943}
{"Sequence": "GUCGCU", "6-mer enrichment (R)": 0.952}
{"Sequence": "CUGAAA", "6-mer enrichment (R)": 0.824}
{"Sequence": "GCGUUG", "6-mer enrichment (R)": 1.11}
{"Sequence": "AGCAAA", "6-mer enrichment (R)": 0.847}
{"Sequence": "AUUGAC", "6-mer enrichment (R)": 0.874}
{"note": "A few entries again (series 2):"}
{"Sequence": "GTCCCCCA", "E-score": -0.0792}
{"Sequence": "ATAAGAAG", "E-score": 0.106}
{"Sequence": "AAAACTCT", "E-score": 0.104}
{"Sequence": "GATGAAGA", "E-score": 0.0368}
{"Sequence": "AGAACGCT", "E-score": -0.0202}
